Measured values gathered from unrelated publications.
Compare with care: the assays were run in different laboratories. “And” joins repeats or separate records; there may be more than shown.
Cell line: NCI-H522

SMILES | assay | test system | setting | scale | quantity | result
CCCc1n(Cc2ccc3ccccc3c2)c2ccccc2[n+]1Cc1ccc2ccccc2c1.[Br-] | NCI60 five-dose screen | – | – | – | TGI | 1050 nM
Cc1cc(=O)[nH]n1-c1nc(-c2ccc(Cl)cc2)c2c(NC(=O)c3ccccc3)nnc-2[nH]1 | SRB | – | 10 µM, NCI60 single-dose screen | relative to: untreated | cell growth | 93.5%
CCN(CC)c1ccc(C=NNC(=O)CSc2nc3ccccc3c(=O)n2Cc2ccc(S(N)(=O)=O)cc2)c(O)c1 | NCI five-dose screen | – | – | – | TGI | > 100000 nM
CC(=O)O[C@H]1C(=O)[C@@]2(C)[C@H]([C@H](OC(=O)c3ccccc3)[C@]3(O)C[C@H](OC(=O)[C@H](O)[C@@H](NC(=O)c4ccccc4)c4ccccc4)C(C)=C1C3(C)C)[C@]1(OC(C)=O)CO[C@@H]1C[C@@H]2O | sulforhodamine B | NSCLC cancer | NCI60 screen | – | TGI | 80 nM
[Br-].c1ccc2cc(Cn3c[n+](Cc4ccc5ccccc5c4)c4ccccc43)ccc2c1 | NCI60 five-dose screen | – | – | – | TGI | 2820 nM
Cc1n[nH]c2nc(-c3ccc(Cl)cc3)c3c(NC(=O)c4ccccc4)nnc-3n12 | SRB | – | 10 µM, NCI60 single-dose screen | relative to: untreated | cell growth | 47.9%
COc1ccc(OC)c(-c2nc3ccc(-c4nc5ccc(N6CCN(C)CC6)cc5[nH]4)cc3[nH]2)c1 | SRB | – | 10 µM, 48 h | – | growth percent | 103%
CCOC(=O)CSc1nc(-c2ccc(Cl)cc2)c2c(NC(=O)c3ccccc3)nnc-2[nH]1 | SRB | – | 10 µM, NCI60 single-dose screen | relative to: untreated | cell growth | 73.3%
CCCN1CCN(c2ccc3[nH]c(-c4ccc5[nH]c(-c6ccc(C(F)(F)F)cc6)nc5c4)nc3c2)CC1 | SRB | – | 10 µM, 48 h | – | growth percent | -43.4%
C#C[C@@]1(O)[C@@H](CO)O[C@@H](n2cc(F)c3c(N)ncnc32)[C@@H]1O | SRB | – | NCI-60 screen | – | TGI | 929 nM
CN1CCN(c2ccc3[nH]c(-c4ccc5[nH]c(-c6ccc(C(F)(F)F)cc6)nc5c4)nc3c2)CC1 | SRB | – | 10 µM, 48 h | – | growth percent | 64.1%
C#C[C@@]1(O)[C@@H](CO)O[C@@H](n2cc(Br)c3c(N)ncnc32)[C@@H]1O | SRB | – | NCI-60 screen | – | TGI | 593 nM and 332 nM
Cc1cc(=O)[nH]c(=O)n1Cc1cn(-c2cc3ccccc3oc2=O)nn1 | NCI60 single-dose screen | – | 10 µM | – | growth percentage | 91.9%
O=C(Nc1nnc2n3c(nc(-c4ccc(Cl)cc4)c1-2)SCC3=O)c1ccccc1 | SRB | – | 10 µM, NCI60 single-dose screen | relative to: untreated | cell growth | 92%
CCCCN1CCN(c2ccc3[nH]c(-c4ccc5[nH]c(-c6ccc(C(F)(F)F)cc6)nc5c4)nc3c2)CC1 | SRB | – | 10 µM, 48 h | – | growth percent | -38.2%
Cn1cncc1C1=CN(c2ncnc3[nH]cnc23)CCS1 | – | – | lung cancer | – | TGI | 81300 nM
C#C[C@@]1(O)[C@@H](CO)O[C@@H](n2cc(Cl)c3c(N)ncnc32)[C@@H]1O | SRB | – | NCI-60 screen | – | TGI | 276 nM and 455 nM
Cc1cc2c(cc1C)[n+](Cc1ccc3ccccc3c1)cn2Cc1ccc2ccccc2c1.[Br-] | NCI60 five-dose screen | – | – | – | TGI | 2990 nM
O=C1NC(c2ccccc2)(c2ccccc2)C(=O)N1Cc1cn(-c2c3ccccc3nc3ccccc23)nn1 | NCI60 single-dose screen | – | 10 µM | – | growth percentage | 15.9%
Cc1cc(C)n(C(=S)[S][Au][PH](CCCCCC[PH]([Au][S]C(=S)n2nc(C)cc2C)(c2ccccc2)c2ccccc2)(c2ccccc2)c2ccccc2)n1 | cell growth, NCI-60 screen | – | non-small cell lung cancer | – | log10 TGI | -5.32
CCCCN1CCN(c2ccc3[nH]c(-c4ccc5[nH]c(-c6ccc(OCC)cc6)nc5c4)nc3c2)CC1 | SRB | – | 10 µM, 48 h | – | growth percent | 68.8%
Cc1cc(C)n(-c2nc(-c3ccc(Cl)cc3)c3c(NC(=O)c4ccccc4)nnc-3[nH]2)n1 | SRB | – | 10 µM, NCI60 single-dose screen | relative to: untreated | cell growth | 76.5%
O=C1NC(c2ccccc2)(c2ccccc2)C(=O)N1Cc1cn(-c2cc3ccccc3oc2=O)nn1 | NCI60 single-dose screen | – | 10 µM | – | growth percentage | 72.9%
CCCN1CCN(c2ccc3nc(-c4ccc5nc(-c6cc(OC)ccc6OC)[nH]c5c4)[nH]c3c2)CC1 | SRB | – | 10 µM, 48 h | – | growth percent | 113%

Some of these lines once more:
SMILES | assay | test system | setting | scale | quantity | result
Cc1cc(=O)[nH]n1-c1nc(-c2ccc(Cl)cc2)c2c(NC(=O)c3ccccc3)nnc-2[nH]1 | SRB | – | 10 µM, NCI60 single-dose screen | relative to: untreated | cell growth | 93.5%
Cc1cc(C)n(-c2nc(-c3ccc(Cl)cc3)c3c(NC(=O)c4ccccc4)nnc-3[nH]2)n1 | SRB | – | 10 µM, NCI60 single-dose screen | relative to: untreated | cell growth | 76.5%
C#C[C@@]1(O)[C@@H](CO)O[C@@H](n2cc(F)c3c(N)ncnc32)[C@@H]1O | SRB | – | NCI-60 screen | – | TGI | 929 nM
